# Measured values collected from several papers.
# Protocols differ between the studies behind these lines. ± marks the error that the study gave.
# Organism: Mycobacterium tuberculosis
Compound,observed,technique,cell line,strain,time,setting,IC50
Cn1c(SCc2ccc(Cl)cc2)nnc1-c1cncc(C#Cc2ccccc2)c1,bacterial growth,MABA,,Erdman wild type,,,2.2 ± 0.364 µM
Nc1c(C(=O)N2CCOCC2)sc2nc(-c3cccnc3)ccc12,growth inhibition,,,H37Rv LepB under-expressing,,,> 100 µM
[H]/N=C(/N)N[C@H]1[C@H](O)[C@@H](O)[C@H](O[C@@H]2O[C@@H](C)[C@](O)(C=O)[C@H]2O[C@@H]2O[C@@H](CO)[C@H](O)[C@@H](O)[C@@H]2NC)[C@@H](N/C(N)=N\[H])[C@@H]1O,bacterial growth,,,H37Rv,,"Wayne model, oxygen-limited",0.08 ± 0.02 µM
COc1ccc(-c2cc(C(F)(F)F)c3c(N)c(C(=O)N4CCCCC4)sc3n2)cc1,growth inhibition,,,H37Rv LepB under-expressing,,,11 ± 9 µM
CC[C@@H](CO)NCCN[C@@H](CC)CO,bacterial growth,,,H37Rv,,"Wayne model, oxygen-limited",2.14 ± 0.46 µM
CCCCCCC#Cc1cncc(-c2nnc(SCc3ccc([N+](=O)[O-])o3)n2C)c1,bacterial growth,,,Erdman wild type,,,0.55 µM
COC(=O)C(=O)[C@H](C[C@@H]1CCNC1=O)NC(=O)[C@H](CCCCN)NC(=O)[C@H](Cc1ccccc1)NC(=O)OCc1ccccc1,bacterial growth,,THP-1 macrophages,Mtb-lux,48 h,,10.8 ± 0.2 µM
CO[C@H]1/C=C/O[C@@]2(C)Oc3c(C)c(O)c4c(O)c(c(/C=N/N5CCN(C)CC5)c(O)c4c3C2=O)NC(=O)/C(C)=C\C=C\[C@H](C)[C@H](O)[C@@H](C)[C@@H](O)[C@@H](C)[C@H](OC(C)=O)[C@@H]1C,,,,H37Rv,,anaerobic conditions,0.002 µM
COc1ccc(-c2cc(C(F)(F)F)c3c(N)c(C(=O)NC4CC4)sc3n2)cc1,growth inhibition,,,H37Rv LepB under-expressing,,,> 100 µM
CCCCCCC#Cc1cncc(-c2nnc(SCc3ccc(Cl)cc3)n2C2CC2)c1,bacterial growth,MABA,,Erdman wild type,,,5.1 ± 0.724 µM
Nc1c(C(=O)N2CCOCC2)sc2ncccc12,growth inhibition,,,H37Rv LepB under-expressing,,,> 100 µM
CCCCCCC#Cc1cncc(-c2nnc(SCc3ccc(Cl)cc3)n2C)c1,bacterial growth,,,Erdman wild type,,,5.3 µM
NNC(=O)c1ccncc1,,,THP-1,H37Rv,,intracellular,0.14 µM

# Some of these lines once more:
Compound,observed,technique,cell line,strain,time,setting,IC50
CCCCCCC#Cc1cncc(-c2nnc(SCc3ccc(Cl)cc3)n2C)c1,bacterial growth,,,Erdman wild type,,,5.3 µM
